Measurements gathered from unrelated publications.
Numbered parts are unrelated; each lists some results of a single study. Positions count from the first letter of the parent shown.

Set 1 — technique: protein binding microarray; molecule type: double-stranded DNA, one strand shown; medium: in vitro; concentration: not given; relative to: not given; direction: higher = stronger binding
Target: Histone acetyltransferase KAT6A, winged helix 2, GST fusion (KAT6A, Homo sapiens, UniProt Q92794, residues 85-181)
Setting: 8-mer, flanks averaged, mean of 2 arrays, mostly near background
Target sequence (chain): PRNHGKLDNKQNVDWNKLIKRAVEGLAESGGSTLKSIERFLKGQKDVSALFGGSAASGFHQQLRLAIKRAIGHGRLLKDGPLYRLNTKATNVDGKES
`CAAAATTG` has an E-score of -0.0117.
`GCCCCTCA` has an E-score of -0.0629.
With `AACCCCGC` the E-score was 0.0963.
`AGGGCTCC` has an E-score of -0.107.
`ACACGCGG` has an E-score of 0.198.
`CACCCTGA` has an E-score of -0.0029.

Set 2 — technique: RNA Bind-n-Seq; molecule type: RNA; medium: in vitro; concentration: 365 nM; relative to: no-protein control; direction: higher = stronger binding
Target: RNA binding protein fox-1 homolog 2, RRM domain, GST-SBP tag (RBFOX2, Homo sapiens, UniProt O43251-10, residues 100-194)
Setting: natural RNA segment, single round, ends assumed
Shared flanks, not repeated: GGGAGUUCUACAGUCCGACGAUC … UGGAAUUCUCGGGUGCCAA
`GACUCGCUUGUAUUUUAAGAGAACCAAGUGGCCAAAGAAACUCUUUCUAACUUUGGCAACAUCAGAACUUGCCACAUGUAGCUACUGCAGCAAGGCUUCUGUGUACUUGC` — result for “RBNS enrichment (R)”: 0.448.
Under “RBNS enrichment (R)”, `UUGCAAGGCUGUACAAUGUGUGCUGAUGCAAGCCUUUUUCAGUUCAAGAGAAUAAAUGUUUACAAAUAUAGGCUCACUUUGUCUUUUUUUUAAUUAAAAACACCUUUUAA` is recorded as 0.672.
Under “RBNS enrichment (R)”, `AAGAAUUCAACUGGCUGAACCUUCAUACCCUGACUGAGAACUAGUGUCCAAUAAAAGGUGACUGGUUACAUACUGCUUGCCUGGUGUAGUCAUUGUUCUGACUUGUCCAC` is recorded as 0.406.
Under “RBNS enrichment (R)”, `UAGCAAACAAGUUAACAAAUGAUAAUAAAUGCAAUUCAGUUUUGGAUGUUGGUCCACAUUGUCAAGAAGUCAUGUAAUAAUAAUAAAUACAUAUUCUACCUGCUACUUGA` is recorded as 0.385.
`GAUGUCCUCUGGUCUUUUCCAUCUUCGCUUUCUAUGACUGUGGAAUAAAUGUUCAGACAGAAACUUCCUUUCCGUUGUGUUGCUGGCAUUCACUAGGGAUUAGAAUACUU`: “RBNS enrichment (R)” 0.501.
For `UCCUCCAUCCACCCUGAGGACCCUGGGGCUCAGUGGAGGCAGGGCCCUGCCCCCCUCCCUUCCGCUCCUGCCCAGCCUGGGGGAAGGAGAAAGGAGGGGAGAAAGCGGGC`, “RBNS enrichment (R)” read 0.656.

Set 3 — target: CCNB2, cyclin fold, Cln2 fusion (human); technique: yeast growth competition, sequencing; medium: yeast; setting: weak parent motif; relative to: not given; direction: higher = stronger binding
Starting sequence: RBL1 docking peptide (human); GSAKRRLFGEDPP; partner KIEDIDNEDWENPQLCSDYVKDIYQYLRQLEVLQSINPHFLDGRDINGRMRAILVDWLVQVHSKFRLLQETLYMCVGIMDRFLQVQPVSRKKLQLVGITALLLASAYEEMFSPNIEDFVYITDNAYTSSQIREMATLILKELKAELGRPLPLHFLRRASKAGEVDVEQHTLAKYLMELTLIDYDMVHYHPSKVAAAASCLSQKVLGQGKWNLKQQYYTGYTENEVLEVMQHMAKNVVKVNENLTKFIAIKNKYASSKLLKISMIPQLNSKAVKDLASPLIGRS
`P12G` — result for “normalised enrichment score”: 0.0886.
For `P12D`, “normalised enrichment score” read -0.0793.
`R6M` — result for “normalised enrichment score”: -0.29.
Under “normalised enrichment score”, `R5C` is recorded as -0.322.
Under “normalised enrichment score”, `K4W` is recorded as -0.0229.
`K4T` — result for “normalised enrichment score”: 0.55.
`P12A` — result for “normalised enrichment score”: 0.568.

Single results of other studies
`PhoQ, residues 284 288 289 292 302 303 GANMMA` gave a fold induction of 15.3 (PhoP, residues 12 14 15 18 19 LHTVM (Escherichia coli, UniProt P23836); Sort-seq, refers to: YFP reporter; E. coli; PhoQ-PhoP variant library, with: 10 µM Mg2+; relative to: high Mg2+ state, higher = stronger signaling).

Repeated from above (set 3):
`P12A` — result for “normalised enrichment score”: 0.568.
